Measured values collected from several papers.
Lines come from different studies, so protocols differ. Values joined by “and” are separate records of one study, mostly repeats; a detail may differ. ± marks the error that the study gave.
Chain of UniProt Q06418 (whole entry, looked up): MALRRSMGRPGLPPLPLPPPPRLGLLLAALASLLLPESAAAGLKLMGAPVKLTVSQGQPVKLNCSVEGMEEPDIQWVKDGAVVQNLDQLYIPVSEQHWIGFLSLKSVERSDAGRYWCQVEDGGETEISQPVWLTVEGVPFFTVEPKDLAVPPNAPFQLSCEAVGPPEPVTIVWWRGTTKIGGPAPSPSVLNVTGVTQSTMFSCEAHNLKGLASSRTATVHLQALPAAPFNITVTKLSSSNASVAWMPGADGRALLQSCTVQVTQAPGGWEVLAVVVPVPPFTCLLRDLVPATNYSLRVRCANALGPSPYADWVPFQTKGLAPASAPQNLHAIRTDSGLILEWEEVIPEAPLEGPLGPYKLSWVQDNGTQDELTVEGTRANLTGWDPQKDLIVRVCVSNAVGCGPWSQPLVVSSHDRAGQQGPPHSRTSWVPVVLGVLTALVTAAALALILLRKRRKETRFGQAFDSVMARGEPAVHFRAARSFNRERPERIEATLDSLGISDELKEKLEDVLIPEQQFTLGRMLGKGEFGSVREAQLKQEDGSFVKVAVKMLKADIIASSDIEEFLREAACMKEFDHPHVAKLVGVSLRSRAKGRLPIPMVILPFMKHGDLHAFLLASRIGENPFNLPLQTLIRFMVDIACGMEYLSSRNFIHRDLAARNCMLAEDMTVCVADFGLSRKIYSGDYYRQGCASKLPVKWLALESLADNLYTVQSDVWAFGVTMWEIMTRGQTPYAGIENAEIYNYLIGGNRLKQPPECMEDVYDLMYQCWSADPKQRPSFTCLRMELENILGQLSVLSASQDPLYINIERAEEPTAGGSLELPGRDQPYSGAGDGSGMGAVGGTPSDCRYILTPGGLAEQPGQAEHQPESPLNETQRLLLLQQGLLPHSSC
Chain of UniProt Q13976 (whole entry, looked up): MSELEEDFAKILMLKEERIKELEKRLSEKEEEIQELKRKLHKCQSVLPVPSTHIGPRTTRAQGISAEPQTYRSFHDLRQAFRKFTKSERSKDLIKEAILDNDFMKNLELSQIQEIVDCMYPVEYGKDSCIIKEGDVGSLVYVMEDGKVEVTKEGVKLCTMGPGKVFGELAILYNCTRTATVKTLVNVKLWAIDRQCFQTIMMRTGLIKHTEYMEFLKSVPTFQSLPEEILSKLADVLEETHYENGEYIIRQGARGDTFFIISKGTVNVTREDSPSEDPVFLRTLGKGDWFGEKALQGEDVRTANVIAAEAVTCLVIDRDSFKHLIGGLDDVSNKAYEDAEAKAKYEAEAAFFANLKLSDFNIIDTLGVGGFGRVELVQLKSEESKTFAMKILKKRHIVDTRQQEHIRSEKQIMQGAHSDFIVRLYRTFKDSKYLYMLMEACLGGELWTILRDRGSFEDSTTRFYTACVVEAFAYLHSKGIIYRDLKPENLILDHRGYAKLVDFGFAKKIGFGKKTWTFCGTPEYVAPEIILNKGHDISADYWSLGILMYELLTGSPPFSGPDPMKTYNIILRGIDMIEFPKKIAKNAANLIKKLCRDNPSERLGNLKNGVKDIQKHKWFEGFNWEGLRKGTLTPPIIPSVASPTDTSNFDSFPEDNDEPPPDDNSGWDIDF
Chain of UniProt Q15131 (whole entry, looked up): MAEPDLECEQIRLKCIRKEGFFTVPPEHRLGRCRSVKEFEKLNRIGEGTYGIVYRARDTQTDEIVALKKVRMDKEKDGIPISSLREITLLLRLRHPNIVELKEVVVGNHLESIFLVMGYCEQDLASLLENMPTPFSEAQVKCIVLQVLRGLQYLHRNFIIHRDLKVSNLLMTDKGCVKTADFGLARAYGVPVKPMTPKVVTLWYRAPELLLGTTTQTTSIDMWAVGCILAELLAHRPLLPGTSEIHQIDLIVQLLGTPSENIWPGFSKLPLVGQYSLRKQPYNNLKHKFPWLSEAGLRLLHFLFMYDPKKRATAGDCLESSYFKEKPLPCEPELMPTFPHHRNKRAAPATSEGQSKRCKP

| SMILES | target or system | test | test system | setting | how to read | endpoint | result |
| --- | --- | --- | --- | --- | --- | --- | --- |
| COc1ccccc1-c1n[nH]c2nc(NC3CCN(C(=O)Cc4ccc(F)cc4F)CC3)ncc12 |  | bead binding, competition bead pull-down, item: LINJ.03.0360 | Leishmania donovani extract | 10 µM | baseline: vehicle | relative abundance | 1.39 |
| CC(C)[C@H]1NC(=O)C[C@H]2/C=C/CCSSC[C@@H](NC1=O)C(=O)N[C@H](Cc1cccc3ccccc13)C(=O)NCC(=O)O2 | TYRO3 (Homo sapiens, UniProt Q06418) | enzyme activity, inhibitor |  | 10 µM |  | inhibition | -1.4% |
| O=C1NC2(CC2)COc2ncc(F)cc2[C@H]2COCCN2c2ccn3ncc1c3n2 |  |  | Sprague-Dawley rat, male, serum | oral, 10 mg/kg/day, end of treatment, 4-week subacute toxicity |  | serum potassium | 4.88 ± 0.94 mmol/L |
| COc1cc(OC)cc([C@@H]2c3cc(/C=C/c4cc(O)cc(O)c4)ccc3O[C@H]2c2ccc(O)cc2)c1 | dog cells |  |  | 1 (unit not given) |  | CC50 | 784 µM |
| O=C(N[C@@H](Cc1ccccc1)C(=O)N[C@@H](C[C@@H]1CCNC1=O)C(O)S(=O)(=O)O)OCc1ccccc1 (stereo partly drawn) | MRC5 |  |  | 5 (unit not given) |  | CC50 | 98.4 ± 7.6 µM |
| CS(C)(=O)=Nc1ccc(-c2ccc(-c3nc4cc(O[C@@H]5CO[C@H]6[C@@H]5OC[C@H]6O)[nH]c4cc3F)cc2)cc1 | cGMP-dependent protein kinase 1, isoform beta (PRKG1, Homo sapiens, UniProt Q13976) | kinase activity |  | 10 µM |  | inhibition | -17% |
| CC[C@H](C)[C@H](NC(=O)[C@H](C)NC(=O)[C@H](CCCCN)NC(=O)[C@H](CCCCN)NC(=O)[C@@H](N)CCCNC(=N)N)C(=O)N[C@@H](CCCCN)C(=O)N[C@@H](CC(C)C)C(=O)N[C@H](C(=O)N[C@@H](CCCCN)C(=O)N[C@@H](CCCCN)C(=O)N[C@@H](CC(C)C)C(=O)N[C@H](C(=O)N[C@@H](CCCCN)C(=O)N[C@@H](CCCCN)C(=O)N[C@@H](CC(C)C)C(=O)N[C@@H](CCCCN)C(=O)N[C@@H](CCCCN)C(=O)N[C@@H](C)C(=O)N[C@@H](CC(C)C)C(=O)N[C@@H](CCCCN)C(=O)O)C(C)C)C(C)C | HeLa | MTT |  | 32 mg/L | baseline: untreated | cell growth | 76.5% and 72.2% and 75.4% |
| CC(C)C[C@@H](NC(=O)[C@H](NC(=O)[C@@H](CCCCN)NC(=O)[C@@H](CCCCN)NC(=O)[C@@H](CC(C)C)NC(=O)[C@@H](Cc1c[nH]c2ccccc12)NC(=O)[C@@H](CCCCN)NC(=O)[C@@H](CC(C)C)NC(=O)[C@@H](CC(C)C)NC(=O)[C@@H](CCCCN)NC(=O)[C@@H](CCCCN)NC(=O)[C@H](N)C(C)C)C(C)C)C(N)=O | sheep red blood cells | 10% haemolysis |  | 1 h, 37 °C |  | minimum haemolytic concentration | 102 µM |
| CC(=O)NCC(=O)N[C@@H](CCCNC(=N)N)C(=O)N[C@@H](CCCCN)C(=O)N[C@@H](CCCCN)C(=O)N[C@@H](CCCNC(=N)N)C(=O)N[C@@H](CCCNC(=N)N)C(=O)N[C@@H](CCC(N)=O)C(=O)N[C@@H](CCCNC(=N)N)C(=O)N[C@@H](CCCNC(=N)N)C(=O)N[C@@H](CCCNC(=N)N)C(=O)N1CCC[C@H]1C(=O)N[C@@H](CCC(N)=O)C(N)=O | HEK-293T | subcellular fractionation LC-MS | nuclear fraction | 20 µM, 2 h |  | concentration | 22.4 nM and 37.8 nM and 33.5 nM |
| CN(C)[C@H]1C[C@@]23CC[C@@]4(O2)C(=CC[C@]2(C)[C@@H](c5ccc6ccncc6c5)CC[C@H]24)C=C3[C@@H](O)[C@@H]1O | CDK10 (Homo sapiens, UniProt Q15131) | ATP probe labelling, inhibitor, KiNativ profiling |  | 1 µM |  | inhibition | 3.9% |
| CC[C@H](C)[C@H](N)C(=O)N[C@@H](CCCNC(=N)N)C(=O)N[C@H](C(=O)N[C@@H](Cc1c[nH]c2ccccc12)C(=O)N[C@@H](Cc1ccccc1)C(=O)N[C@H](C(=O)N[C@@H](CCCCN)C(=O)N[C@H](C(=O)N[C@@H](CCCNC(=N)N)C(=O)N[C@@H](CCCCN)C(=O)N[C@@H](CCSC)C(=O)N[C@@H](CCCCN)C(=O)N[C@@H](C)C(=O)N[C@H](C(=O)N[C@@H](Cc1ccc(O)cc1)C(=O)N[C@@H](Cc1c[nH]cn1)C(N)=O)[C@@H](C)CC)C(C)C)[C@@H](C)CC)C(C)C | rat erythrocytes |  |  | 200 µM, 60 min, 37 °C |  | hemolysis | 33.5 ± 3.2% |
| CNC(=O)CC[C@H](Cc1ccccc1)NC(=O)[C@@H](Cc1ccc(Cl)cc1Cl)NC(=O)[C@H](N)Cc1ccccc1[N+](=O)[O-] | Huh-7-ACE2 | CellTiter-Glo |  | 0.00305 µM, 48 h, unit not given | baseline: DMSO | viability | 0.923 and 0.937 and 1.03 |
| CC[C@H](C)[C@H](NC(=O)[C@H](CCCNC(=N)N)NC(=O)[C@@H]1CCCN1C(=O)[C@H](CCCNC(=N)N)NC(=O)[C@H](Cc1ccccc1)NC(=O)[C@H](Cc1c[nH]cn1)NC(=O)[C@H](CCCNC(=N)N)NC(=O)[C@H](CC(C)C)NC(=O)[C@H](CCCCN)NC(=O)CNC(=O)[C@H](CC(C)C)NC(=O)[C@H](Cc1ccccc1)NC(=O)[C@H](CCCNC(=N)N)NC(=O)CNC(=O)[C@H](Cc1ccccc1)NC(=O)[C@H](CCCNC(=N)N)NC(=O)CNC(=O)[C@H](CCCNC(=N)N)NC(=O)[C@H](CCC(N)=O)NC(=O)[C@@H](NC(=O)[C@@H](N)CC(C)C)[C@@H](C)CC)C(=O)N[C@@H](CCCCN)C(=O)N[C@@H](Cc1ccccc1)C(=O)N[C@@H](CCCCN)C(=O)NCC(=O)N[C@@H](CCCCN)C(=O)N[C@@H](C)C(=O)NCC(=O)N[C@@H](Cc1c[nH]c2ccccc12)C(=O)N[C@H](C(=O)N[C@H](C(=O)NCC(=O)O)C(C)C)[C@@H](C)O | rat erythrocytes | haemolysis |  | 1 h, 37 °C, 2% erythrocytes in PBS |  | HC50 | 3.23 log10 µg/mL |
| CNC(=O)C[C@H](Cc1ccc(F)cc1)NC(=O)[C@@H](Cc1ccc(Cl)cc1Cl)NC(=O)[C@H](N)Cc1ccccc1[N+](=O)[O-] | Huh-7-ACE2 | CellTiter-Glo |  | 0.0488 µM, 48 h, unit not given | baseline: DMSO | viability | 0.976 and 1.01 and 1.07 |
| CCN(CC)CCCC[C@H](NC(=O)[C@H](CC(C)C)NC(=O)[C@H](C)N(C)C(=O)[C@H](Cc1ccccc1)NC(=O)c1ccc(C(C)(C)C)cc1)C(=O)N[C@@H](CO)C(=O)OC | HEK-293T | CellTiter-Glo |  | up to 100 µM, 48 h |  | cytotoxicity | not toxic |

Repeated from above:
| SMILES | target or system | test | test system | setting | how to read | endpoint | result |
| --- | --- | --- | --- | --- | --- | --- | --- |
| CNC(=O)CC[C@H](Cc1ccccc1)NC(=O)[C@@H](Cc1ccc(Cl)cc1Cl)NC(=O)[C@H](N)Cc1ccccc1[N+](=O)[O-] | Huh-7-ACE2 | CellTiter-Glo |  | 0.00305 µM, 48 h, unit not given | baseline: DMSO | viability | 0.923 and 0.937 and 1.03 |
